Measurements from different studies.
Parts stem from different laboratories: compare values within a part only. Substitutions count along the parent as printed.

Study 1 — method: protein binding microarray; form: double-stranded DNA, one strand shown; sample: in vitro; tested at: not given; reference: not given; direction: higher = stronger binding
Target: Histone acetyltransferase KAT6A, winged helix 2, GST fusion (KAT6A, Homo sapiens, UniProt Q92794, residues 85-181)
Notes: 8-mer, flanks averaged, mean of 2 arrays, mostly near background
Residues (chain): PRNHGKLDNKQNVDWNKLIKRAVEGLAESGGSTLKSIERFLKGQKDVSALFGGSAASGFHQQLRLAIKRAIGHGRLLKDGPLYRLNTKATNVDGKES
Sequence | E-score
AGGCGATG | 0.0563
AACACGAG | -0.0337
ACCCCGCT | 0.127
AGGCCCAG | 0.0798
ACGTATAC | -0.237
CCCTGAGG | 0.0218
TCCAGACA | -0.0496
AGCCGGAG | 0.258
CGTCTCCC | 0.075
AACAGAGT | 0.0171
ATAAGGAG | -0.222
GGGACCAC | 0.00596
AATGCCTC | 0.0381
CGTAGACA | -0.353
CTACTGGC | -0.129
CTTTTATC | -0.00388
ATACGTTC | -0.127
ACCGTGAA | -0.0569
ACTCTCCA | -0.0613
CCTCAATA | -0.175
GCCCTAAA | -0.147
ACCCGCAT | 0.125
AATTCACT | 0.0751
CACCCGAA | 0.283

Study 2 — method: protein-binding microarray; form: double-stranded DNA, one strand shown; sample: in vitro; tested at: 940 nM top; notes: 60-bp whole probe; added: salmon DNA 0.4 mg/ml; reference: random background probes; direction: higher = stronger binding; all sequences stand within: GCCTAGCAC … GTCTTGATTCGCTTGACGCTGCTG
Target: Interferon regulatory factor 5, full length, phosphomimetic (IRF5, Homo sapiens, UniProt Q13568-2, residues 1-514, S451D/S453D/S456D/S462D)
Sequence | fitted relative affinity
GACGGTATCGTTATCGGGACGTGCTAG | 4.4 z-score
TTAGGACTGCTTCTCTTTTAGTGCTAG | 0.362 z-score
TTTCCTCTTTCTTTGCTTCAGTGCTAG | 2.84 z-score
TCACCTCTACCTCCTGGGACTGTGCTA | 0.565 z-score
GACGGTTTCGACACTGCGGACGTGCTA | 7.05 z-score
GACGATATCGGGTTTTGAGACGTGCTA | 0.154 z-score
TTAGATTTCATTATCGATTAGTGCTAG | 1.26 z-score
GACGGTCTCCTACTGCTGAGGTGCTAG | -0.234 z-score
TTAGGTTTCCTTTCCCTTAAGTGCTAG | 3.18 z-score
TTAGATTTCGGGTATCGATTAGTGCTA | 3.8 z-score
GGGTCTGTGCCTTTTTTTTTGTGCTAG | 0.122 z-score
TTAGGTTCCGGGACTGGGTTAGTGCTA | 0.682 z-score
TTAGGACTGGACACTGGGATAGTGCTA | -0.362 z-score
TCAAGCCTCCATTTTTAACTGTGCTAG | -0.136 z-score
TTAGATTCCAGTCTCGATTAGTGCTAG | 3.5 z-score
TATCCTATCAGTTTAATATCGTGCTAG | 0.519 z-score
GACGATTTCAGTATCGAGAAGTGCTAG | 2.38 z-score
TTAGGACTGGACTTTCGGTTAGTGCTA | 2.33 z-score
TTAAGACTGGGGACTGGGTTAGTGCTA | -0.17 z-score
GACGGTATCGGCTTCGGGACGTGCTAG | 4.75 z-score
TCAGATTTATCAAATGTGACTGTGCTA | -0.505 z-score

Study 3 — method: DHFR PCA, deep sequencing; sample: yeast; added: (+)-ABA 0.11 µM; reference: wild-type fitted maximum; direction: higher = stronger binding
Target: ABI1, truncated, D143A, DHFR fusion (Arabidopsis thaliana)
Notes: methotrexate growth selection, single substitutions
Starting sequence: PYL1, truncated, DHFR fusion (Arabidopsis thaliana); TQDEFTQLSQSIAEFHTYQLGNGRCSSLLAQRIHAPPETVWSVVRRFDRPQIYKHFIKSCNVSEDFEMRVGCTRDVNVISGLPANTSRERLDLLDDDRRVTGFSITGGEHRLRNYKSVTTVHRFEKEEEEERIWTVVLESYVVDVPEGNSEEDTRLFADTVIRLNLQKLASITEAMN; partner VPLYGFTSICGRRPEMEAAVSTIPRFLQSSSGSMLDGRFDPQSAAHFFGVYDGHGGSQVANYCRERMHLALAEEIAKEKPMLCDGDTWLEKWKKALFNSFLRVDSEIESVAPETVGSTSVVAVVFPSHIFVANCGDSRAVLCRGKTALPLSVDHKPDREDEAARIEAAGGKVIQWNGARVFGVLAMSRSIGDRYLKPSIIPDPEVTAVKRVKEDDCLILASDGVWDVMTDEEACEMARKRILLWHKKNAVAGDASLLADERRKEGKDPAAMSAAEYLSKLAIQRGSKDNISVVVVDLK
Substitution | relative binding score
G21T | 38.3%
V70H | -1.07%
D92Q | 4.01%
E147Y | 15.5%
D65Y | -4.55%
Y141D | 5.9%
K116C | -3.65%
Q10D | 59.3%
N22S | 42.8%
V136K | -8.47%
K168M | 8.7%
G102T | -6.84%
S87T | 34.7%
S87C | 34.9%
D92V | -1.7%
G21F | -2.36%
C25F | 8.02%
E152A | 22.3%
C60F | -2.96%
T73K | 7.64%

Study 4 — target: NFE2L3, bZIP domain (human); method: DHFR protein complementation; sample: yeast; reference: wild-type JUN-FOS pair; direction: higher = stronger binding
Notes: single substitutions, most at no-binding floor
Starting sequence: JUN, bZIP domain (human); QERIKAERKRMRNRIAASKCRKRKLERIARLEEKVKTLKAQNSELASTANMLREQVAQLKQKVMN; partner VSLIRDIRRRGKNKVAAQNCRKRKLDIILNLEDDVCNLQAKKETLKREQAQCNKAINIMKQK
Substitution | binding fitness
A57H | -1.59 natural log
I28T | -1.28 natural log
T37P | -1.45 natural log
T37Q | -1.49 natural log
N42Y | -1.57 natural log
A46Y | -1.47 natural log
K36E | -1.27 natural log
I28P | -1.53 natural log
S43T | -1.4 natural log
Q41H | -1.35 natural log
L52H | -1.55 natural log
K34L | -1.42 natural log
Q41P | -1.51 natural log
R30V | -1.35 natural log
A46R | -1.31 natural log
A46L | -1.47 natural log

Study 5 — target: CCND1, cyclin fold, Cln2 fusion (human); method: yeast growth competition, sequencing; sample: yeast; notes: weak parent motif; reference: not given; direction: higher = stronger binding
Starting sequence: CDKN1B docking peptide (human); PSACRNLFGPVDH; partner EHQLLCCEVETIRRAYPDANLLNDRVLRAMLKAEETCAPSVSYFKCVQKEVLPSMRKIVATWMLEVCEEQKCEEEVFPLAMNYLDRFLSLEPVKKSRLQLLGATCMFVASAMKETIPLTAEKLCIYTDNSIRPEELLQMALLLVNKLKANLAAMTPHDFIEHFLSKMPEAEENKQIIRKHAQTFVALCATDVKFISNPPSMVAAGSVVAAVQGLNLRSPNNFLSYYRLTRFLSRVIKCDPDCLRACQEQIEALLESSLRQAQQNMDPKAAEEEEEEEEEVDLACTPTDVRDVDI
Substitution | normalised enrichment score
PSACRNLFGPVEH [D12E] | 0.527
PSACKNLLGPVDH [R5K F8L] | 0.183
PSACRNKFGPVDH [L7K] | 0.00267
PSACRNLFGPVKH [D12K] | 0.536
PSACRNLFGPVGH [D12G] | 0.676
PSACRNLFGQVDH [P10Q] | 0.838
PSACRNLFDPVDH [G9D] | 0.731
PSACRNAFGPVDH [L7A] | -0.00693
PSACRNLFGPVDV [H13V] | 0.448
PSACRNLFNPVDH [G9N] | 0.237
PDACRNLFGPVDH [S2D] | 0.733
PSACRNLFGPVCH [D12C] | 0.703
PSACRNLLGPVDH [F8L] | 0.00731
ESACRNLFGPVDH [P1E] | 0.86
PSACRNLFGWVDH [P10W] | 0.588
PSACRNFFGPVDH [L7F] | 0.27

Study 6 — method: protein-binding microarray; form: hairpin DNA; sample: in vitro; tested at: not given; reference: not given; direction: higher = stronger binding; all sequences stand within: GAGGCCAG … CTGGCCTCACACTC
Target: Homeobox protein Hox-C11, full length (HOXC11, Homo sapiens, UniProt O43248, residues 1-304)
UniProt O43248, sequence (whole entry, looked up): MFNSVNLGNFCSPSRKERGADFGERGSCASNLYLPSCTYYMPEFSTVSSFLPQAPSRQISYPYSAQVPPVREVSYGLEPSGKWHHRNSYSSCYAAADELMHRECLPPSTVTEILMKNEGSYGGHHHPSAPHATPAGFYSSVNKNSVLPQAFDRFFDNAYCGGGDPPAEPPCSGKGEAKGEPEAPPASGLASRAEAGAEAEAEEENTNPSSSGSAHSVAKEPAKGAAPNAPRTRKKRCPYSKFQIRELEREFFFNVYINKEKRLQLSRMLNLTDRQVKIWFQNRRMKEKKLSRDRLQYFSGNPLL
Notes: whole hairpin DNA, median over replicate spots
Sequence | median fluorescence
GTGGTAAAAGCCTCCTGGCTTTTACCAC (5mC at 34) | 9390 a.u.
GTGGTAAAAGCCTCCTGGCTTTTACCAC | 9850 a.u.
GTCCGTAAAGCCTCCTGGCTTTACGGAC (5mC at 32) | 9880 a.u.
GTTGTTAAAGCCTCCTGGCTTTAACAAC | 8360 a.u.
CGCGTTAAAGCCTCCTGGCTTTAACGCG (5mC at 35) | 10300 a.u.
GCGGTAAAAGCCTCCTGGCTTTTACCGC | 10600 a.u.
GTTGTAAAAGCCTCCTGGCTTTTACAAC | 9180 a.u.
GTCGCGAAAGCCTCCTGGCTTTCGCGAC | 11100 a.u.
CTCGTAAAAGCCTCCTGGCTTTTACGAG (5mC at 9) | 8700 a.u.
GTAGTAAAAGCCTCCTGGCTTTTACTAC | 9370 a.u.
GTCGTTAAAGCCTCCTGGCTTTAACGAC (5mC at 36) | 11500 a.u.
GTCGTTCGAGCCTCCTGGCTCGAACGAC | 10700 a.u.
GTCCGTAAAGCCTCCTGGCTTTACGGAC (5mC at 12 32) | 9380 a.u.
GTCGTAAAGGCCTCCTGGCCTTTACGAC | 10200 a.u.
GTCGTCGAAGCCTCCTGGCTTCGACGAC (5mC at 14) | 10200 a.u.
GTCATAAAAGCCTCCTGGCTTTTATGAC | 8890 a.u.
GTCGAAAAAGCCTCCTGGCTTTTTCGAC | 9480 a.u.
GTCGTACGAGCCTCCTGGCTCGTACGAC | 10300 a.u.
GTCGTTAGAGCCTCCTGGCTCTAACGAC | 10300 a.u.
GTCGTTCGAGCCTCCTGGCTCGAACGAC (5mC at 15) | 10600 a.u.
TTCGTTAAAGCCTCCTGGCTTTAACGAA | 8550 a.u.
ATCGTAAAAGCCTCCTGGCTTTTACGAT | 9230 a.u.
